Assay results gathered from unrelated publications.
Each numbered part is a random draw from the data of one study; scales do not carry over between parts.
Sequence of UniProt Q12852 (whole entry, looked up): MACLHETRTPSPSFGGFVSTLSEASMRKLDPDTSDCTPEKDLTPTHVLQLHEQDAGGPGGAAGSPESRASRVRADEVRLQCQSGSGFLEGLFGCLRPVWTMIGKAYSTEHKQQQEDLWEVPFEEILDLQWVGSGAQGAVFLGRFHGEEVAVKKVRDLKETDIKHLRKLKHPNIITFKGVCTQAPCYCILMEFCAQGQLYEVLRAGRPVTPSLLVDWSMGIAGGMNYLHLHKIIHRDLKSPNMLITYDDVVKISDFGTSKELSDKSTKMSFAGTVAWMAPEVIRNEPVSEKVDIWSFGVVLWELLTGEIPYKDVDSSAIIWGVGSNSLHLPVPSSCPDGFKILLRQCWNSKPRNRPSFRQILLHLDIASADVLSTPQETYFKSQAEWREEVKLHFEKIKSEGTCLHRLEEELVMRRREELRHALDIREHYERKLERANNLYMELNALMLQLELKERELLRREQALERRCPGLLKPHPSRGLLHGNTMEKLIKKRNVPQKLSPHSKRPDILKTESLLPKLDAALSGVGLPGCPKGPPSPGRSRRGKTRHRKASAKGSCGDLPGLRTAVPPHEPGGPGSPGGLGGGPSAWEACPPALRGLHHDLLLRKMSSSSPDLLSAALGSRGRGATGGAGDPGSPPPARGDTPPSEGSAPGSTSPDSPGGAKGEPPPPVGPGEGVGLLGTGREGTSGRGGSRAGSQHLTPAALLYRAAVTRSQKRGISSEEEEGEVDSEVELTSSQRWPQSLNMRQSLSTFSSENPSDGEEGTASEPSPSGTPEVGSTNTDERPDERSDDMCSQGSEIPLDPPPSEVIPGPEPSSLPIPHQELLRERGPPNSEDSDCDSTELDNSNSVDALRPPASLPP
Sequence of UniProt Q6ZN16 (whole entry, looked up): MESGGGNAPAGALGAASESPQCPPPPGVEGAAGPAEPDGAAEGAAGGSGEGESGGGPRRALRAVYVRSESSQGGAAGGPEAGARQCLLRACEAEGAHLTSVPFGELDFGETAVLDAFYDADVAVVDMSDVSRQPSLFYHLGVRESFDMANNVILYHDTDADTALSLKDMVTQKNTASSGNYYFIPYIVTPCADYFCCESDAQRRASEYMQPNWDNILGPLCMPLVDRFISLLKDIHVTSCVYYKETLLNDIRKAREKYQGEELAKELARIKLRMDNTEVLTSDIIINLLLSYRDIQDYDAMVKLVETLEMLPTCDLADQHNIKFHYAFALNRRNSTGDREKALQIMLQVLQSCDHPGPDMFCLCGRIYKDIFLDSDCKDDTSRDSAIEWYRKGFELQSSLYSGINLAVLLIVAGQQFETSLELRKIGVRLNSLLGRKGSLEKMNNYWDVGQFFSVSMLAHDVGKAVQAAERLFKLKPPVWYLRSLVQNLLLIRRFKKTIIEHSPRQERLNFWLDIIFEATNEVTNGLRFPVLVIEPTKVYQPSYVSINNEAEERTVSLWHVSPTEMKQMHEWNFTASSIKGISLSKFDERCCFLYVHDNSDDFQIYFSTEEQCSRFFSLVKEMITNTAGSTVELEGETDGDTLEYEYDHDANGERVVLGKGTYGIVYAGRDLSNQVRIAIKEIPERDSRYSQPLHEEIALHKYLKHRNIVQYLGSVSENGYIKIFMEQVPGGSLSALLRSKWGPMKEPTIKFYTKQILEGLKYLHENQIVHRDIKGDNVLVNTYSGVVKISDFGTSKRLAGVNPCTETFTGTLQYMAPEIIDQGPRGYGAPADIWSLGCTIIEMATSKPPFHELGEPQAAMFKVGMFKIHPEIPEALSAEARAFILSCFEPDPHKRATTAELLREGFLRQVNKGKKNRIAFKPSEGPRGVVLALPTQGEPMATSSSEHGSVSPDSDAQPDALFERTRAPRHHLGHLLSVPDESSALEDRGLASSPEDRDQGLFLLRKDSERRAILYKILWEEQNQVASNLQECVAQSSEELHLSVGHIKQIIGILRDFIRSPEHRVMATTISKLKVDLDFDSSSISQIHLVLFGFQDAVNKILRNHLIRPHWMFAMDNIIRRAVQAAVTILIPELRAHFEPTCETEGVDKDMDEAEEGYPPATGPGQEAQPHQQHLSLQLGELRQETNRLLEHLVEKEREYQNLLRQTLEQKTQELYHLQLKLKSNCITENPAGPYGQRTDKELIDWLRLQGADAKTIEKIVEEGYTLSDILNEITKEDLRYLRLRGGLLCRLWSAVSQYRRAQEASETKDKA
Sequence of UniProt P29597 (whole entry, looked up): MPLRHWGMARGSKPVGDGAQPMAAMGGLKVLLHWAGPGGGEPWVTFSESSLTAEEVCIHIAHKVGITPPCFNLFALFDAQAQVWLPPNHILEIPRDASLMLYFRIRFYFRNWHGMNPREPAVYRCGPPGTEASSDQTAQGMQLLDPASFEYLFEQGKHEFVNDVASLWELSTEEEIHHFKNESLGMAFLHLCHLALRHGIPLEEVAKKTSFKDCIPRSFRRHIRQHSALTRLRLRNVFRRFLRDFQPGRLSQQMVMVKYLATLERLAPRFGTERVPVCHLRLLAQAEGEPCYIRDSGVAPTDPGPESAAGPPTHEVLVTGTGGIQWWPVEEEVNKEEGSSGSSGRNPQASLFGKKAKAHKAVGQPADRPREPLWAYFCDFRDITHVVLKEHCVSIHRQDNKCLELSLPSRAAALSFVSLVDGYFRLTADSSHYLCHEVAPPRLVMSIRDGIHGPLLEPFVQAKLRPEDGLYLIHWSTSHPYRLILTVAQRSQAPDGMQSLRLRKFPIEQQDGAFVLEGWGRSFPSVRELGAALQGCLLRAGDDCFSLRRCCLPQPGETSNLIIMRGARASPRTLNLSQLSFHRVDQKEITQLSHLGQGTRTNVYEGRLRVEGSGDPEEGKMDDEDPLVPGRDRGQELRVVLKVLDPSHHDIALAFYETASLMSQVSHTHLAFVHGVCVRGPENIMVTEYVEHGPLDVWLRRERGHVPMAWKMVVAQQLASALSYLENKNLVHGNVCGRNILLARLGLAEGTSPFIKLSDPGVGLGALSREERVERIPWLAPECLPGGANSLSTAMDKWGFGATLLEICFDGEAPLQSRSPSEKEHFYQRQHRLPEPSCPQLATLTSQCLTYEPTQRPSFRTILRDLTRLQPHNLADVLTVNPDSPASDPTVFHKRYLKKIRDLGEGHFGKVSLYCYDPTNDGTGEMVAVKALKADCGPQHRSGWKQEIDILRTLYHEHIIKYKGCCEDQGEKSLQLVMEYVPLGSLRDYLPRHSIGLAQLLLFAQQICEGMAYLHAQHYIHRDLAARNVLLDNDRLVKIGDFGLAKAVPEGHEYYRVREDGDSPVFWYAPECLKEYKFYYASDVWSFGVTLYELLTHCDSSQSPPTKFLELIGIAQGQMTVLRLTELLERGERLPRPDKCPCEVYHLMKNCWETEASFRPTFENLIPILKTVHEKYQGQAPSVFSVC
Sequence of UniProt Q8TBX8 (whole entry, looked up): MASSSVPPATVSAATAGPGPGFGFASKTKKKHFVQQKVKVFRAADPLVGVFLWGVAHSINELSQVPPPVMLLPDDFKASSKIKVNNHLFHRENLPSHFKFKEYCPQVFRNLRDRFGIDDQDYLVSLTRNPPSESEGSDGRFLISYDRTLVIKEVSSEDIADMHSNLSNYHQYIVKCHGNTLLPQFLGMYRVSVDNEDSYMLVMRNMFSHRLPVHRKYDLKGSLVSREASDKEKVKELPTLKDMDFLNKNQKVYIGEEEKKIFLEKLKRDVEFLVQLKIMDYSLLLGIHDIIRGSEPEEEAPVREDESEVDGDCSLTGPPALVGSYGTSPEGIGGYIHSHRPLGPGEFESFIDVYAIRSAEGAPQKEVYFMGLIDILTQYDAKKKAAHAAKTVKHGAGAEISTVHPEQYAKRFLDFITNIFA

Series 1
Target: ATP-dependent RNA helicase DDX3X, helicase core (DDX3X, Homo sapiens, UniProt O00571, residues 132-607)
Sequence of UniProt O00571 (132-607, looked up): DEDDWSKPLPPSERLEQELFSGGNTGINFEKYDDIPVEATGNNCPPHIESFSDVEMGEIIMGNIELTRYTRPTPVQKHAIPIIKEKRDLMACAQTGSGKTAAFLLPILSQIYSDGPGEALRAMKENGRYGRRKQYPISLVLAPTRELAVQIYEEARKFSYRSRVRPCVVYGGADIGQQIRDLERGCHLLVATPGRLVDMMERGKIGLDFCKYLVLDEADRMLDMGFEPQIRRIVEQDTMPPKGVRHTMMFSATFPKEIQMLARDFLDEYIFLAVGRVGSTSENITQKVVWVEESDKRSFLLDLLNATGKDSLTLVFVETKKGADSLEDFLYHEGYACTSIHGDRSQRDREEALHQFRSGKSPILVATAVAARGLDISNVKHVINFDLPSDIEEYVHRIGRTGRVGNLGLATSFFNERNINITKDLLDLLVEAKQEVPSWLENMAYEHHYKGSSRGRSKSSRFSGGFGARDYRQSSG
Method: RNA Bind-n-Seq
Molecule type: RNA
Medium: in vitro
Tested at: not given
Notes: 4-mer, random 30-nt RNA, single round
Added: RocA, ADP, phosphate
Baseline: input library
Direction: higher = stronger binding
Measurement: 4-mer enrichment
UUUU: 1.07 fold
GAAC: 0.949 fold
GCUG: 0.866 fold
UCUC: 0.704 fold
UUAA: 0.972 fold
CCAC: 0.772 fold
UGAG: 2.1 fold
AGUG: 1.41 fold

Series 2
SMILES: O=C(O)[C@H]1[C@H](Cn2nnc3ccccc3c2=O)CC[C@@H]1C(=O)c1ccc(OCCC2CCOCC2)cc1
Effect on: cell-free assay
Method: competition with immobilised ligand
Tested at: 1 µM
Measurement: remaining binding
MAP3K15 (Homo sapiens, UniProt Q6ZN16): 64%
PRKG2 (Homo sapiens, UniProt Q13237): 100%
PIP4K2C (Homo sapiens, UniProt Q8TBX8): 100%
MAP3K12 (Homo sapiens, UniProt Q12852): 88%
FLT1 (Homo sapiens, UniProt P17948): 96%
Non-receptor tyrosine-protein kinase TYK2, JH2 (TYK2, Homo sapiens, UniProt P29597): 100%

Series 3
Target: Tyrosine-protein kinase Lyn, isoform B (LYN, Homo sapiens, UniProt P07948)
Sequence of UniProt P07948 (whole entry, looked up): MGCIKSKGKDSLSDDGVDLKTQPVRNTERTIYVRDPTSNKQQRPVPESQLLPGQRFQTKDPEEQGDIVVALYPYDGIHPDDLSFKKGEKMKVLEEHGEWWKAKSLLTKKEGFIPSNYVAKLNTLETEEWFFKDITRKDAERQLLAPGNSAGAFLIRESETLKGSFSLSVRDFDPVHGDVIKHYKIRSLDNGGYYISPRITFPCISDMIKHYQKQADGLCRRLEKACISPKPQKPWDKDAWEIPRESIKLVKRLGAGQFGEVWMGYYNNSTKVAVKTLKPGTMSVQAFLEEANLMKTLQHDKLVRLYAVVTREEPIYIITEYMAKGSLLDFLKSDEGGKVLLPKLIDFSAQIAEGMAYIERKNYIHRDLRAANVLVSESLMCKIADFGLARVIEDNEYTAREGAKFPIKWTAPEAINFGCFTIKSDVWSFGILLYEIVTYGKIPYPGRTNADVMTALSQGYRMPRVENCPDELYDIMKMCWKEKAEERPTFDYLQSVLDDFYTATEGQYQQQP
Effect on: enzyme activity
Action: inhibitor
Tested at: 0.5 µM
Baseline: control
Measurement: remaining activity
O=C(Nc1cccc(Nc2nccc(Nc3cccc(C(F)(F)F)c3)n2)c1)C1CC1: 99.9%
O=C1Nc2ccc(Cl)cc2C1=Cc1cc(Cl)c(O)c(Cl)c1: 87.5%
CN(C)C[C@H]1CCn2c(c(C3=C(c4cn(C)c5ccccc45)C(=O)NC3=O)c3ccccc32)C1: 98.3%
Cn1nc2c3c(cccc31)C(=O)c1ccccc1-2: 97.7%
CCN(CC)CCNC(=O)c1c(C)[nH]c(/C=C2\C(=O)Nc3ccc(Cl)cc32)c1C: 21.9%

Series 4
Target: Histone acetyltransferase KAT6A, winged helix 1, GST fusion (KAT6A, Homo sapiens, UniProt Q92794, residues 1-85)
Method: protein binding microarray
Molecule type: double-stranded DNA, one strand shown
Medium: in vitro
Tested at: not given
Notes: 8-mer, flanks averaged, mean of 2 arrays, mostly near background
Baseline: not given
Direction: higher = stronger binding
Measurement: E-score
Construct (chain): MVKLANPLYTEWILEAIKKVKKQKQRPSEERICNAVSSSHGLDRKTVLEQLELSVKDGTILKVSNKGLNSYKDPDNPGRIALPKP
GCCGACCA: 0.142
GAAAATGA: -0.127
GGAGTACA: 0.0241
GGGATGAC: -0.0101
GAAGCAGC: -0.119
GCTACGCC: 0.23
ATAATTAC: -0.0975
ACGTATGC: 0.054

A few entries again (series 4):
GAAGCAGC: -0.119
